Assay results of several laboratories.
Compare with care: the assays were run in different laboratories. ± gives the spread as reported.
Sample: plasma

SMILES	host	route	dose	notes	endpoint	result
CN1C[C@H](COc2nccc3c(NCc4ccco4)cc(Cl)nc23)OC1=O	C57BL/6 mice	oral	10 mg/kg	–	AUC	6.76 µM·h
Cc1cc2sc(N)nc2c2cccnc12	female BALB/c mice	i.p.	30 mg/kg	observed	AUC extrapolated	0.293%
CN(C)C(=O)c1cc2cnc(Nc3ccc(-c4ccc5c(=O)cc(N6CCOCC6)oc5c4)cc3)nc2n1C1CCCC1.Cl	BALB/c mice	intravenous	2 mg/kg	–	AUC extrapolated fraction	0.1%
CC(C)(C)c1sc2ncnc(Oc3c(F)cccc3OC(F)(F)F)c2c1-c1ccc(Cl)cc1	wild-type mice	intravenous	1 mg/kg	–	AUC	2770 ng·h/mL
CCOc1ccc(N(C)S(=O)(=O)c2cc(Cl)sc2C(=O)Nc2cc(Cl)cc(C(=O)O)c2)cc1OC	male C57BL/6 mice	intraperitoneal	10 mg/kg	–	AUC extrapolated fraction	4.8%
c1ccc(-c2nc(N3CCC(c4ccccn4)C3)c3ccccc3n2)nc1 (centres unmarked)	male ICR mice	intravenous	0.1 mg/kg	cassette dosing	AUC	44.9 ng·h/mL
Nc1ncc(-c2ccncc2)nc1Nc1ccc2[nH]ccc2c1	C57BL mice, male	subcutaneous	10 mg/kg	–	AUC	4 µM·h
COc1ccc2cc(CCC[18F])ccc2c1	Balb/c mice, male	intravenous	dose not given	–	AUC	412 ± 40 %ID·min/mL
